{"data": "Experimental data gathered from unrelated publications", "PDE8A": "High affinity cAMP-specific and IBMX-insensitive 3',5'-cyclic phosphodiesterase 8A (PDE8A, Homo sapiens, UniProt O60658)", "Genome polyprotein NS3 helicase domain": "Genome polyprotein, NS3 helicase domain (Hepatitis C virus genotype 1b, UniProt Q9WMX2)", "SRC SH3-SH2-kinase domain": "Proto-oncogene tyrosine-protein kinase Src, SH3-SH2-kinase domain (SRC, Gallus gallus, UniProt P00523)", "note": "Lines come from different studies, so protocols differ. “And” joins repeats or separate records; there may be more than shown. Numbers after ± are the reported error."}
{"SMILES": "CN(C(=O)c1ccn2ncc(-c3ccc(C(N)=O)cc3)c2c1)c1ccc(C#N)cn1", "target": "IGF1R (Homo sapiens, UniProt P08069)", "assay": "enzyme activity, inhibitor", "IC50": "> 10 µM"}
{"SMILES": "O=S(=O)(NCc1csc(-c2ccccc2)n1)c1ccc(Cl)c(Cl)c1", "target": "Trypanothione synthetase (Trypanosoma brucei, UniProt Q586P2)", "assay": "enzyme activity, inhibitor", "IC50": "5.8 µM"}
{"SMILES": "O=C(O)c1cc(S(=O)(=O)Nc2c(F)cccc2F)ccc1O", "target": "RAD52 (Homo sapiens, UniProt P43351)", "assay": "DNA binding, inhibitor, FRET", "setting": "25 °C, together with: Cy3-dT30-Cy5 1 nM", "IC50": "23.1 ± 1.5 µM"}
{"SMILES": "O=S(=O)(O)C1CCNCC1", "target": "SLC6A6 (Homo sapiens, UniProt P31641)", "assay": "transporter uptake, inhibitor, radiometric", "IC50": "270 µM"}
{"SMILES": "CC(C)n1nc(-c2ccc3cc(OCc4ccccc4)ccc3c2)c2c(N)ncnc21", "target": "Tyrosine-protein kinase HCK, SH3 (HCK, Homo sapiens, UniProt P08631, K245P/K248P)", "assay": "enzyme activity, inhibitor", "IC50": "0.013 µM"}
{"SMILES": "CNC(=O)N(C)c1ccc(C(=O)Nc2ccc(Cl)cc2C(=O)Nc2ccc(Cl)cn2)cc1", "target": "F10 (Homo sapiens, UniProt P00742)", "assay": "enzyme activity, inhibitor, absorbance", "IC50": "0.00025 µM"}
{"SMILES": "Oc1c(C(Nc2nc3ccccc3s2)c2cccc(OCc3ccccc3)c2)ccc2cccnc12 (stereo not shown)", "target": "Genome polyprotein, NS2B-NS3 protease (Dengue virus type 2, UniProt P14340)", "assay": "enzyme activity, inhibitor", "setting": "0.1% CHAPS, together with: Bz-Nle-Lys-Arg-Arg-AMC substrate", "IC50": "≤ 1 µM and 0.91 µM"}
{"SMILES": "Cc1ccc(-c2csc(N)n2)cc1", "target": "Capsid scaffolding protein, protease domain (Human herpesvirus 8 type P, UniProt Q2HRB6)", "assay": "protease activity, inhibitor", "setting": "together with: fluorogenic peptide substrate", "IC50": "> 500 µM"}
{"SMILES": "C#CCOc1cccc(Oc2nc3c(c(=O)n(CCCO)c(=O)n3C)n2Cc2ccc(C3(C(F)(F)F)N=N3)cc2)c1", "target": "TRPC4/TRPC1 (TRPC1/TRPC4, Homo sapiens, UniProt P48995+Q9UBN4)", "assay": "calcium influx, inhibitor, Fura-2", "system": "HEK T-REx expressing TRPC1/TRPC4", "setting": "together with: englerin A 30 nM", "IC50": "0.002 µM"}
{"SMILES": "CC(/C=C/C(=O)NO)=C\\[C@@H](C)C(=O)c1ccc(N(C)C)cc1", "target": "PTPN6 (Homo sapiens, UniProt P29350)", "assay": "enzyme activity, inhibitor, fluorescence", "IC50": "> 100 µM"}
{"SMILES": "COCCCN1CCc2c(Cc3ccc(Cl)cc3)[nH]c3c(OC(F)F)ccc(c23)C1=O", "target": "PDE8A", "assay": "enzyme activity, inhibitor", "IC50": "> 10 µM"}
{"SMILES": "CCC(CC)[C@H](NC(C)=O)[C@@H]1[C@H](O)[C@@H](C(=O)OCCOC(=O)[C@@H](N)C(C)C)C[C@H]1NC(=N)N", "target": "SLC15A1 (Homo sapiens, UniProt P46059)", "assay": "transporter uptake, inhibitor", "IC50": "1340 µM"}
{"SMILES": "C[C@]12CCC(=O)C=C1CCC1C2CC[C@]2(C)C(c3cccnc3)=CCC12 (stereo partly shown)", "target": "HSD3B1 (Homo sapiens, UniProt P14060)", "assay": "enzyme activity, item: androstenedione", "system": "LNCaP and VCaP", "setting": "together with: [3H]-DHEA", "IC50": "0.019 µM"}
{"SMILES": "CCN(CC)c1ccc(-c2nc3ccc(C)c(S(=O)(=O)O)c3s2)cc1", "target": "Genome polyprotein NS3 helicase domain", "assay": "helicase activity, inhibitor, MBHA", "IC50": "33 ± 24 µM"}
{"SMILES": "Cc1ccccc1-c1cc(N2CCN(C(=O)[C@@H](N)CCCNC(=N)N)CC2)ccc1N(C)C(=O)C(C)(C)c1cc(C(F)(F)F)cc(C(F)(F)F)c1", "target": "TACR1 (Homo sapiens, UniProt P25103)", "assay": "nuclear ERK activity, antagonist, FRET biosensor", "system": "HEK293T", "setting": "30 to 90 min preincubation, together with: substance P 10 nM", "IC50": "0.437 µM"}
{"SMILES": "N#Cc1c(-c2ccc(Cl)cc2)cc(-c2cccs2)nc1SCc1ccc(C(=O)O)cc1", "target": "KAT2A (Homo sapiens, UniProt Q92830)", "assay": "enzyme activity, inhibitor, radiometric", "IC50": "3.1 µM"}
{"SMILES": "CN(Cc1nc2ccccc2c(=O)[nH]1)C(=O)Cc1csc(-c2ccc(F)cc2)n1", "target": "Trypanothione synthetase (Trypanosoma brucei brucei, UniProt Q586P2)", "assay": "enzyme activity, BIOMOL Green phosphate release", "setting": "1 h preincubation", "IC50": "19.9 ± 2.7 µM"}
{"SMILES": "CCCCCCCCCCCCCCCC(=O)OCCN1CCN(c2cc(Nc3ncc(C(=O)Nc4c(C)cccc4Cl)s3)nc(C)n2)CC1", "target": "ABL1 (Homo sapiens, UniProt P00519)", "IC50": "0.68 µM"}
{"SMILES": "Cc1cc(N2CCN(C(=O)CN3CCN(c4ccccc4)CC3)CC2)n2ncnc2n1", "target": "TOP2A (Homo sapiens, UniProt P11388)", "assay": "enzyme activity, inhibitor", "IC50": "48.5 µM"}
{"SMILES": "CCCc1nc2cc(C(=O)N3CCC4(CC3)CC(=O)c3cc5c(cc3O4)OC(C)(C)CC5)cc(C)c2[nH]1", "target": "ACACB (Homo sapiens, UniProt O00763)", "assay": "enzyme activity, inhibitor, ADP detection", "IC50": "0.141 µM"}
{"SMILES": "Cc1ccc2nc(-c3ccc(N=NNc4ccc(-c5nc6ccc(C)c(S(=O)(=O)O)c6s5)cc4)cc3)sc2c1S(=O)(=O)O", "target": "Genome polyprotein NS3 helicase domain", "assay": "DNA binding, fluorescence polarization", "setting": "together with: Cy5-dT15 DNA 5 nM", "IC50": "2.8 ± 0.2 µM"}
{"SMILES": "NC(=O)[C@@H]1CCNC(=O)[C@H](CCCNC(=O)c2cnccn2)NC(=O)[C@H](Cc2ccco2)NC(=O)[C@H](CC2CC2)NC(=O)/C=C\\C(=O)N1", "target": "SRC SH3-SH2-kinase domain", "assay": "enzyme activity, inhibitor, Z'-LYTE FRET", "setting": "Src residues 83-533, together with: 50 µM ATP", "IC50": "0.6 ± 0.05 µM"}
{"SMILES": "c1ccc2c(Nc3cc(C4CCC4)[nH]n3)nc(Nc3ccc4cn[nH]c4c3)nc2c1", "target": "ULK1 (Homo sapiens, UniProt O75385)", "assay": "enzyme activity, inhibitor, radiometric", "IC50": "> 0.3 µM"}
{"SMILES": "CCCCCC/C=C/C=C\\C=C\\C=C\\[C@@H](O)[C@@H](O)CCCC(=O)O", "target": "FPR2 (Homo sapiens, UniProt P25090)", "assay": "ligand displacement in cells, radioligand", "IC50": "~0.1 µM"}
{"SMILES": "C[C@@H](O)[C@@H]1NC(=O)[C@H](Cc2ccccc2)NC(=O)[C@H]([C@@H](C)O)NC(=O)[C@H](CCCCN)NC(=O)[C@@H](Cc2c[nH]c3ccccc23)NC(=O)[C@H](Cc2ccccc2)NC(=O)[C@H](Cc2ccccc2)NC(=O)[C@H](CC(N)=O)NC(=O)[C@H](NC(=O)[C@@H](N)Cc2ccc(Cl)cc2)CSSC[C@@H](C(=O)N[C@@H](Cc2ccc3ccccc3c2)C(N)=O)NC1=O", "target": "SSTR4 (Homo sapiens, UniProt P31391)", "assay": "ligand displacement, radioligand", "setting": "pH 8.2, cell membranes", "IC50": "0.0053 µM"}
{"SMILES": "Clc1ccc(C(c2ccc(Cl)cc2)n2cc[n+](CC(OCc3ccc(Cl)cc3Cl)c3ccc(Cl)cc3Cl)c2)cc1 (stereo not shown)", "target": "Trypanothione synthetase (Trypanosoma brucei brucei, UniProt Q586P2)", "assay": "enzyme activity, BIOMOL Green phosphate release", "setting": "1 h preincubation", "IC50": "10 µM"}
{"SMILES": "Nc1nc(Cl)nc2c1ncn2Cc1cc(OCC(F)F)cc(-c2cccnc2F)c1", "target": "PDE8A", "assay": "enzyme activity, inhibitor, radiometric", "IC50": "0.0059 µM"}
{"SMILES": "Cc1nc(C)c(S(=O)(=O)NCc2nn(-c3ccccc3)nc2C)s1", "target": "Trypanothione synthetase (Trypanosoma brucei, UniProt Q586P2)", "assay": "enzyme activity, inhibitor", "IC50": "2.2 µM"}
{"SMILES": "CN1CCC[C@@H](C(=O)O)NC(=O)/C=C/C(=O)N[C@@H](CC2CCCCC2)C(=O)N[C@@H](Cc2ccc(F)cc2)C(=O)N[C@@H](Cc2ccc([N+](=O)[O-])cc2)C1=O", "target": "SRC SH3-SH2-kinase domain", "assay": "enzyme activity, inhibitor, Z'-LYTE FRET", "setting": "Src residues 83-533, together with: 50 µM ATP", "IC50": "0.036 ± 0.001 µM"}
{"SMILES": "Nc1ncnc2c1c(-c1ccc(Oc3ccccc3)cc1)nn2C1CCCC1", "target": "Proto-oncogene tyrosine-protein kinase Src, autophosphorylated (SRC, Gallus gallus, UniProt P00523, Y527F)", "assay": "photo-crosslinking probe binding, competition with HT-1", "system": "mammalian cell lysate", "setting": "activated kinase", "IC50": "1.1 ± 0.5 µM"}
{"SMILES": "C[C@@H](N)C1CCN(S(=O)(=O)c2cccc3cnccc23)CC1", "target": "ROCK2 (Homo sapiens, UniProt O75116)", "assay": "enzyme activity, inhibitor, radiometric", "IC50": "0.59 µM"}
{"SMILES": "N#Cc1ccc(C[C@@H]2NC(=O)[C@H](Cc3ccccc3)NC(=O)[C@H](CC3CCCCC3)NC(=O)/C=C/C(=O)N[C@H](C(N)=O)CCCNC2=O)cc1", "target": "SRC SH3-SH2-kinase domain", "assay": "enzyme activity, inhibitor, Z'-LYTE FRET", "setting": "Src residues 83-533, together with: 50 µM ATP", "IC50": "≤ 0.004 µM"}
{"SMILES": "COc1ccc(OC)c(S(=O)(=O)NCc2nn(-c3ccccc3)nc2C)c1", "target": "Trypanothione synthetase (Trypanosoma brucei, UniProt Q586P2)", "assay": "enzyme activity, inhibitor", "IC50": "> 100 µM"}
{"SMILES": "CC(C)C[C@H](NC(=O)[C@H](CO)NC(=O)[C@@H](NC(=O)[C@@H]1CCCN1C(=O)[C@H](CCCNC(=N)N)NC(=O)[C@H](CCC(=O)O)NC(=O)[C@H](CCCCN)NC(=O)[C@H](CCCNC(=N)N)NC(=O)[C@H](CCCNC(=N)N)NC(=O)CNC(=O)[C@H](C)NC(=O)[C@@H](N)Cc1ccc(O)cc1)[C@@H](C)O)C(=O)N[C@@H](CC(N)=O)C(=O)N[C@H](C(=O)N[C@@H](Cc1ccccc1)C(=O)N1CCC[C@H]1C(=O)O)C(C)C", "target": "Mitogen-activated protein kinase 14 (Rattus norvegicus, UniProt P70618, D315S/D316E/E317A)", "assay": "kinase activity, inhibitor, competitive kinase", "IC50": "> 100 µM"}
{"SMILES": "O=S(=O)(Nc1cscn1)c1c(F)cc(NCc2c(F)ccc(F)c2CN2CCC2)cc1F", "target": "SCN8A (Homo sapiens, UniProt Q9UQD0)", "assay": "sodium current, inhibitor, automated patch clamp", "setting": "inactivated state, Vh -45 mV", "IC50": "0.0103 µM and 0.01 µM"}
{"SMILES": "CC(C)(C)S(=O)(=O)Cc1nc(-c2ccc(Cl)c(Cl)c2)cs1", "target": "Trypanothione synthetase (Trypanosoma brucei, UniProt Q586P2)", "assay": "enzyme activity, inhibitor", "IC50": "2.5 µM"}
{"SMILES": "O=C(O)c1csc(S(=O)(=O)NCc2ccc3c(c2)OCO3)c1", "target": "DNA repair protein RAD52 homolog, with RPA and ssDNA (RAD52, Homo sapiens, UniProt P43351)", "assay": "inhibitor, FRET", "IC50": "46.7 ± 4.9 µM"}
{"note": "A few entries again:"}
{"SMILES": "O=S(=O)(NCc1csc(-c2ccccc2)n1)c1ccc(Cl)c(Cl)c1", "target": "Trypanothione synthetase (Trypanosoma brucei, UniProt Q586P2)", "assay": "enzyme activity, inhibitor", "IC50": "5.8 µM"}
{"SMILES": "O=C(O)c1cc(S(=O)(=O)Nc2c(F)cccc2F)ccc1O", "target": "RAD52 (Homo sapiens, UniProt P43351)", "assay": "DNA binding, inhibitor, FRET", "setting": "25 °C, together with: Cy3-dT30-Cy5 1 nM", "IC50": "23.1 ± 1.5 µM"}
{"SMILES": "O=S(=O)(O)C1CCNCC1", "target": "SLC6A6 (Homo sapiens, UniProt P31641)", "assay": "transporter uptake, inhibitor, radiometric", "IC50": "270 µM"}
{"SMILES": "CC(C)n1nc(-c2ccc3cc(OCc4ccccc4)ccc3c2)c2c(N)ncnc21", "target": "Tyrosine-protein kinase HCK, SH3 (HCK, Homo sapiens, UniProt P08631, K245P/K248P)", "assay": "enzyme activity, inhibitor", "IC50": "0.013 µM"}
{"SMILES": "CNC(=O)N(C)c1ccc(C(=O)Nc2ccc(Cl)cc2C(=O)Nc2ccc(Cl)cn2)cc1", "target": "F10 (Homo sapiens, UniProt P00742)", "assay": "enzyme activity, inhibitor, absorbance", "IC50": "0.00025 µM"}
